# Measurements from different studies.
# Every numbered part comes from another study and shows a few of its results, in no order.
# Chain of UniProt P10721 (whole entry, unmodified, looked up): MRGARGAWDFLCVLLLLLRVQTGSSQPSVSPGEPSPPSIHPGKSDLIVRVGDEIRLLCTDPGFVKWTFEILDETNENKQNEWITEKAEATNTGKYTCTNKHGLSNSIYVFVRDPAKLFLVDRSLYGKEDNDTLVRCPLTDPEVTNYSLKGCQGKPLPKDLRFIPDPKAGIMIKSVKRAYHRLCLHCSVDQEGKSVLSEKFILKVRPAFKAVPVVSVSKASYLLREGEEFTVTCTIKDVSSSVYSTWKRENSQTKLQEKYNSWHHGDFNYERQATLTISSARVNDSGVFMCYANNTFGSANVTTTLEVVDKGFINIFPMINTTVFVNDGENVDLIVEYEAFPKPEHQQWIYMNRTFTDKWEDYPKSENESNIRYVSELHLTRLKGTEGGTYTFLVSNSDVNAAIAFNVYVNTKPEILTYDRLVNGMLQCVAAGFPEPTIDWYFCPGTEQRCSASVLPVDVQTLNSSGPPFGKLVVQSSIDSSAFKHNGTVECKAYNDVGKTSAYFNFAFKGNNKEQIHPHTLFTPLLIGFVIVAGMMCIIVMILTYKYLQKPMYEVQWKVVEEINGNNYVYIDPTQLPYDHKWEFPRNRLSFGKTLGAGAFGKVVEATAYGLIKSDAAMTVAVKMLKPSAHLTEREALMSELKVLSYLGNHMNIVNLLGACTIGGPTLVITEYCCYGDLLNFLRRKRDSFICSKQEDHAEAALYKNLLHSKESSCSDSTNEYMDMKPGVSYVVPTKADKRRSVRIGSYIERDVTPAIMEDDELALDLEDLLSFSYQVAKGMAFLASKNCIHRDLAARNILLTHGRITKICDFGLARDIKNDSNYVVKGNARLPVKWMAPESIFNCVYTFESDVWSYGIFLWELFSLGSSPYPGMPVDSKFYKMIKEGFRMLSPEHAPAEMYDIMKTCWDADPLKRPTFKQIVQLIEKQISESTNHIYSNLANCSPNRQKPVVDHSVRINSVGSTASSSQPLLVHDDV
# Chain of UniProt Q8NE63 (whole entry, looked up): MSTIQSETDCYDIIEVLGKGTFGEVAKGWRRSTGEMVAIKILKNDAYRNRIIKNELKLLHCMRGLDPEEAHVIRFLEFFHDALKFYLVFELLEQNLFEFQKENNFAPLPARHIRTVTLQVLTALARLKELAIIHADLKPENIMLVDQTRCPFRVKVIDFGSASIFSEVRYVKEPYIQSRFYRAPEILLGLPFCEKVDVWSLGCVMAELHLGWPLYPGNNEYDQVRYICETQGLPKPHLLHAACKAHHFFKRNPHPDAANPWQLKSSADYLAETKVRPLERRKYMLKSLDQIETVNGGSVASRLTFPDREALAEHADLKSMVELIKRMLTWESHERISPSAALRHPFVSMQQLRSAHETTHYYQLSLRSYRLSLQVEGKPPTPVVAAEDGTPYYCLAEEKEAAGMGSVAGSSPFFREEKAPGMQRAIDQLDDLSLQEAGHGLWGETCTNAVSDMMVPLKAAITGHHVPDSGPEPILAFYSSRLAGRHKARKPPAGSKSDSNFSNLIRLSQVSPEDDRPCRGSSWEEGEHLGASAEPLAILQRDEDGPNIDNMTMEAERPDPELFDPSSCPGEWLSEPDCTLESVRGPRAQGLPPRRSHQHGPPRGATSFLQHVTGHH
# Chain of UniProt Q92630 (whole entry, looked up): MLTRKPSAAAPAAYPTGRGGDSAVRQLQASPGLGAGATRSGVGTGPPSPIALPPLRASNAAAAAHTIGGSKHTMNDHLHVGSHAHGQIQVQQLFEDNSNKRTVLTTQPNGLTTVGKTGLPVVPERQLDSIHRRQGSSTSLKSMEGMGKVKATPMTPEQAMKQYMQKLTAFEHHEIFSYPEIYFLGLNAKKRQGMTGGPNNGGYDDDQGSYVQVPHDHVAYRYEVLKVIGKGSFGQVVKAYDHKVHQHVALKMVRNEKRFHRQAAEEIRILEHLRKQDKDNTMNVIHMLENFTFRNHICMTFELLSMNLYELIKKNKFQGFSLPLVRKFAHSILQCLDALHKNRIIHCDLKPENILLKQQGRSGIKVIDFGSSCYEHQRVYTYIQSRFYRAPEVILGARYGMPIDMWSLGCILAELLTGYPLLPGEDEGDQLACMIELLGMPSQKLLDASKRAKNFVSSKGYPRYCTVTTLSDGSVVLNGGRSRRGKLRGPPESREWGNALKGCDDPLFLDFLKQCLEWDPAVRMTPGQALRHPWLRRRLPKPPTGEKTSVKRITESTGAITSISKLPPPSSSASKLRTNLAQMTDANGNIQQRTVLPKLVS
# Chain of UniProt Q15208 (whole entry, looked up): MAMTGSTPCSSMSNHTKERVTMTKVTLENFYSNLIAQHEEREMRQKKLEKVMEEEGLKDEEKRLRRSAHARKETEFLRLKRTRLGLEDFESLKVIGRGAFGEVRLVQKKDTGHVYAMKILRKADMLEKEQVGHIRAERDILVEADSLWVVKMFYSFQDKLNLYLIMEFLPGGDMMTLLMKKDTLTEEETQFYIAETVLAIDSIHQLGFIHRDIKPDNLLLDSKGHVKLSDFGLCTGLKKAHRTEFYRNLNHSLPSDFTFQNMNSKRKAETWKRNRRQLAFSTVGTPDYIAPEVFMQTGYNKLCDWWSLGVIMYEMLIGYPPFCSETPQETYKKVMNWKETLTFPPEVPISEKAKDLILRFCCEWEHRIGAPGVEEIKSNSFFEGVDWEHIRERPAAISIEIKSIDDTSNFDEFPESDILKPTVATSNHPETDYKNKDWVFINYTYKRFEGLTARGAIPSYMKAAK
# Chain of UniProt Q9UBE8 (whole entry, looked up): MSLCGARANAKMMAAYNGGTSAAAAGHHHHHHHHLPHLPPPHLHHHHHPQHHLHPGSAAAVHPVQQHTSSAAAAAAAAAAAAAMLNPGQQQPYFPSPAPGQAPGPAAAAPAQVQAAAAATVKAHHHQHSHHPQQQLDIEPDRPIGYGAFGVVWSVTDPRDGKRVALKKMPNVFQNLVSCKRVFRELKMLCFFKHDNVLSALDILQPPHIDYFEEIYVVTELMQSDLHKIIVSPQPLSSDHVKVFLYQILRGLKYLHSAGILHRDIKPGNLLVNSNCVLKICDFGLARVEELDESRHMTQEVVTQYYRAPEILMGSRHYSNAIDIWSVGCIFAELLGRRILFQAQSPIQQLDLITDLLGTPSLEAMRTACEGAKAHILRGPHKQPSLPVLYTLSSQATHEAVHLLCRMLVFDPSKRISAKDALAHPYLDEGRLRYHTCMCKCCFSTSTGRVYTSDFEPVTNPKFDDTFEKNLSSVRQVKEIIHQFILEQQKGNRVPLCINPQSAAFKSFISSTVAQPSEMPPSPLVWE
# Chain of UniProt Q9UKE5 (whole entry, looked up): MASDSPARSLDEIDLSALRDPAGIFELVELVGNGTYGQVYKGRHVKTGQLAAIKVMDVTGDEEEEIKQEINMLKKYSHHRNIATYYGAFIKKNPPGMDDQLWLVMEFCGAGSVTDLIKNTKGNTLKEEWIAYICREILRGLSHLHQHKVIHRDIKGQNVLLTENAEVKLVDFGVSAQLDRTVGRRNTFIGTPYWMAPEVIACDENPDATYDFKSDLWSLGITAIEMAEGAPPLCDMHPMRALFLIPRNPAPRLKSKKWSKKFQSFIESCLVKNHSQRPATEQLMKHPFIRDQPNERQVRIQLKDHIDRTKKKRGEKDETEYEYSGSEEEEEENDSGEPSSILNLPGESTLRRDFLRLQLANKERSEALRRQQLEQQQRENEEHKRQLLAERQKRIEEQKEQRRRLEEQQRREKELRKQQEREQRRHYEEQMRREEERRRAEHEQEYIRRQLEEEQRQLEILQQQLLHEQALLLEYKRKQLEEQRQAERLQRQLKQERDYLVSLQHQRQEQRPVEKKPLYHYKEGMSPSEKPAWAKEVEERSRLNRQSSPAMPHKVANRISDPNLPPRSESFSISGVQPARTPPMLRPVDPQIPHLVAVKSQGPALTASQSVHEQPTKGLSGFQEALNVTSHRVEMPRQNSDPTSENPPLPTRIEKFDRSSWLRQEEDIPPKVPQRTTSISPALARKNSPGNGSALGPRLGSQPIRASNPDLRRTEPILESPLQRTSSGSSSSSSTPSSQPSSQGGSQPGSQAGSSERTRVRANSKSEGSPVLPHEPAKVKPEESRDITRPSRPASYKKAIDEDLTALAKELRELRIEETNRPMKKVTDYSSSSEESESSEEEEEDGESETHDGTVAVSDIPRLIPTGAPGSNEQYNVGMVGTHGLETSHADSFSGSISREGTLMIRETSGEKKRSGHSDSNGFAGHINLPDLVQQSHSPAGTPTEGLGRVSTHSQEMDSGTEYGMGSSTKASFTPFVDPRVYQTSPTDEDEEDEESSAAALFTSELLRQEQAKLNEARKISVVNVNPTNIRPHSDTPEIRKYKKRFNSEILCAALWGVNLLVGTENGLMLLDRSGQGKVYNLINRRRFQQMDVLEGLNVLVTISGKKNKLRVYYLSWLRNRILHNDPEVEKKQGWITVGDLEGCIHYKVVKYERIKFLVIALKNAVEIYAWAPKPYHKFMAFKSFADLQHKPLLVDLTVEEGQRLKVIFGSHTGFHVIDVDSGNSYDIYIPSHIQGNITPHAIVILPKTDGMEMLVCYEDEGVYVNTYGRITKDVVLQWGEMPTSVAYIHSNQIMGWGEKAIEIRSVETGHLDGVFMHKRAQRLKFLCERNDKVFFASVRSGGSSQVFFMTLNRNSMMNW

# Series 1
# Target: TAR DNA-binding protein 43, full length, His tag (TARDBP, Homo sapiens, UniProt Q13148, residues 1-414)
# Method: RNA Bind-n-Seq
# Form: RNA
# Matrix: in vitro
# Concentration: 20 nM
# Setting: 6-mer, flanks averaged, single round
# With: 150 mM LiCl
# Relative to: input library
# Direction: higher = stronger binding
Oligonucleotide,6-mer enrichment (R)
GCUAAU,0.913
UGGUUA,1.09
UCACUC,0.848
UCCCUG,1.02
GGGCGG,1.33
UGCUGU,1.12
ACAUUU,1.01
AUCUGA,0.782

# Series 2
# Target: Histone acetyltransferase KAT6A, winged helix 2, GST fusion (KAT6A, Homo sapiens, UniProt Q92794, residues 85-181)
# Method: protein binding microarray
# Form: double-stranded DNA, one strand shown
# Matrix: in vitro
# Concentration: not given
# Setting: 8-mer, flanks averaged, mean of 2 arrays, mostly near background
# Relative to: not given
# Direction: higher = stronger binding
# Target sequence (chain): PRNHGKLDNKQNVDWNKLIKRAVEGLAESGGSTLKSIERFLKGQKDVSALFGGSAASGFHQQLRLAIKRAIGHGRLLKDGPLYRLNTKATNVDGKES
Oligonucleotide,E-score
ACTAACCG,-0.0829
CCTTAAGA,-0.152
GCCCTCCA,0.0231
GCACGGGC,0.0777
ACGTCACT,-0.0898
AAATATTC,0.188
AAGATAGT,-0.106
CAAACGCA,0.00168

# Series 3
# Target: RAC-alpha serine/threonine-protein kinase (AKT1, Homo sapiens, UniProt P31749)
# Chain of UniProt P31749 (whole entry, looked up): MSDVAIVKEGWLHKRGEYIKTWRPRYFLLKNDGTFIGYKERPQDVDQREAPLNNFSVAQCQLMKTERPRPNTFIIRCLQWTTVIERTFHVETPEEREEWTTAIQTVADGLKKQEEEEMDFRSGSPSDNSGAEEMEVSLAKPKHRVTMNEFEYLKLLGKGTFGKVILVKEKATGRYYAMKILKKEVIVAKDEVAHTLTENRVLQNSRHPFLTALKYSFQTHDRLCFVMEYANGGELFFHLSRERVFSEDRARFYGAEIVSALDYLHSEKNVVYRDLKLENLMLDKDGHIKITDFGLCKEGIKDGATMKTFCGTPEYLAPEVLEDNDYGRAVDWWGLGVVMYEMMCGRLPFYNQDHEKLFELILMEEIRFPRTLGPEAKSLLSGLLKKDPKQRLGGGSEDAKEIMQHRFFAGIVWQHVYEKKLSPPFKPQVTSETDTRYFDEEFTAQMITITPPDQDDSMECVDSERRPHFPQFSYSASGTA
# Effect on: enzyme activity
# Action: inhibitor
# Concentration: 0.5 µM
# Relative to: control
Structure (SMILES),remaining activity [%]
Nc1ncnc2n[nH]c(Nc3ccc(F)cc3)c12,93.3
CO[C@H]1C[C@@H]2CC[C@@H](C)[C@@](O)(O2)C(=O)C(=O)N2CCCC[C@H]2C(=O)O[C@H]([C@H](C)C[C@@H]2CC[C@@H](O)[C@H](OC)C2)CC(=O)[C@H](C)/C=C(\C)[C@@H](O)[C@@H](OC)C(=O)[C@H](C)C[C@H](C)/C=C/C=C/C=C/1C,104
O=C(CCCc1ccc(-c2ccccc2F)cc1)Nc1ccc(O)cc1,97.8
N#CC(C#N)=C(N)/C(C#N)=C/c1ccc(O)cc1,99.2
O=S(=O)(c1cccc2cnccc12)N1CCCNCC1,99.3
COc1cc2ncnc(Nc3ccc(Oc4ccccc4)cc3)c2cc1OC,107
Cc1cccc(-c2[nH]c(C(C)(C)C)nc2-c2ccc3c(c2)OCO3)n1,94.6
Cc1ccc(Nc2nccc(N(C)c3ccc4c(C)n(C)nc4c3)n2)cc1S(N)(=O)=O,91.2
Cn1c2ccccc2c2c3c(c4c5ccccc5n(CCC#N)c4c21)CNC3=O,108
COc1ccc(C(=O)Nc2sc3c(c2C(N)=O)CCCC3)cc1OC,99.7
CCOC(=O)c1c(C)[nH]c(/C=C2\C(=O)Nc3ccccc32)c1C,96.1
CC(C)[C@H](CO)Nc1nc(Nc2cc(N)cc(Cl)c2)c2ncn(C(C)C)c2n1,117
COc1ccc(OC)c2c(=S)c3ccccc3[nH]c12,89.7
CNC(=O)c1cc(Oc2ccc(NC(=O)Nc3ccc(Cl)c(C(F)(F)F)c3)cc2)ccn1,96.2
O=C(Nc1cccc(Nc2cc(Nc3cccc(C(F)(F)F)c3)ncn2)c1)C1CC1,102

# Series 4
# Compound: Cc1noc([C@H]2C[C@@H](c3ccc(C(F)(F)F)cc3)CN(C(=O)N3CCS(=O)(=O)C3)C2)n1
# Effect on: cell-free assay
# Method: competition with immobilised ligand
# Concentration: 1 µM
target,remaining binding
"Tyrosine-protein kinase FRK (FRK, Homo sapiens, UniProt P42685)",100%
"Homeodomain-interacting protein kinase 4 (HIPK4, Homo sapiens, UniProt Q8NE63)",100%
"Transient receptor potential cation channel subfamily M member 6 (TRPM6, Homo sapiens, UniProt Q9BX84)",100%
"Epidermal growth factor receptor (EGFR, Homo sapiens, UniProt P00533, G719S)",100%
"TRAF2 and NCK-interacting protein kinase (TNIK, Homo sapiens, UniProt Q9UKE5)",99%
"Myosin light chain kinase, smooth muscle (MYLK, Homo sapiens, UniProt Q15746)",87%
"Tyrosine-protein kinase ABL1, non-phosphorylated (ABL1, Homo sapiens, UniProt P00519, H396P)",100%
"Phosphatidylinositol 3-kinase C2 domain-containing subunit gamma (PIK3C2G, Homo sapiens, UniProt O75747)",90%
"Phosphatidylinositol 4,5-bisphosphate 3-kinase catalytic subunit delta isoform (PIK3CD, Homo sapiens, UniProt O00329)",100%
"eIF-2-alpha kinase GCN2, C-terminal kinase domain (EIF2AK4, Homo sapiens, UniProt Q9P2K8, S808G)",28%
"Myosin light chain kinase (MYLK3, Homo sapiens, UniProt Q32MK0)",100%
"Serine/threonine-protein kinase NLK (NLK, Homo sapiens, UniProt Q9UBE8)",70%
"Mast/stem cell growth factor receptor Kit (KIT, Homo sapiens, UniProt P10721, V559D/V654A)",100%
"Serine/threonine-protein kinase 32B (STK32B, Homo sapiens, UniProt Q9NY57)",68%
"Hepatocyte growth factor receptor (MET, Homo sapiens, UniProt P08581)",100%
"Mast/stem cell growth factor receptor Kit (KIT, Homo sapiens, UniProt P10721, A829P)",100%
"Phosphatidylinositol 4,5-bisphosphate 3-kinase catalytic subunit alpha isoform (PIK3CA, Homo sapiens, UniProt P42336, H1047Y)",95%
"Protein kinase C epsilon type (PRKCE, Homo sapiens, UniProt Q02156)",100%
"Serine/threonine-protein kinase 38 (STK38, Homo sapiens, UniProt Q15208)",100%
"Dual specificity tyrosine-phosphorylation-regulated kinase 2 (DYRK2, Homo sapiens, UniProt Q92630)",100%
"RAC-alpha serine/threonine-protein kinase (AKT1, Homo sapiens, UniProt P31749)",90%
"Epidermal growth factor receptor (EGFR, Homo sapiens, UniProt P00533, del752-759)",84%

# Some of these lines once more (series 3):
Structure (SMILES),remaining activity [%]
COc1cc2ncnc(Nc3ccc(Oc4ccccc4)cc3)c2cc1OC,107
Cc1cccc(-c2[nH]c(C(C)(C)C)nc2-c2ccc3c(c2)OCO3)n1,94.6
Cc1ccc(Nc2nccc(N(C)c3ccc4c(C)n(C)nc4c3)n2)cc1S(N)(=O)=O,91.2
Cn1c2ccccc2c2c3c(c4c5ccccc5n(CCC#N)c4c21)CNC3=O,108
COc1ccc(C(=O)Nc2sc3c(c2C(N)=O)CCCC3)cc1OC,99.7
CCOC(=O)c1c(C)[nH]c(/C=C2\C(=O)Nc3ccccc32)c1C,96.1
CC(C)[C@H](CO)Nc1nc(Nc2cc(N)cc(Cl)c2)c2ncn(C(C)C)c2n1,117
COc1ccc(OC)c2c(=S)c3ccccc3[nH]c12,89.7
